Measured values pooled from the literature.
Each line is one published result; not all experiments were run side by side. Values joined by “and” are separate records of one study, mostly repeats; a detail may differ. ± marks the error that the study gave.

Cc1ccc(OCCN(C)C)cc1C(=O)N[C@H](C)c1cc(-c2cncs2)nc2ccccc12 — viability (Vero E6; 7.812 µM): 98.3% and 116%
Cc1ccn2c(-c3csc(Nc4ccccn4)n3)c(C)nc2c1 — IC50 (Ba/F3; cytotoxicity; 3 days): > 1250 nM
Cc1nc2cccc(OCC(C)(C)C(=O)NC(C)C)c2c(N)c1C(=O)[O-].[Na+] — revertant colonies per plate (Salmonella typhimurium; TA1537; 0.32 mg per plate, without S9, preincubation): 13 ± 1
CC[C@H](C)[C@H](NC(=O)[C@H](CCCCN)NC(=O)CNC(=O)[C@H](CC(C)C)NC(=O)[C@H](Cc1ccccc1)NC(=O)[C@H](CCCCN)NC(=O)[C@H](CO)NC(=O)[C@H](Cc1ccccc1)NC(=O)[C@H](Cc1c[nH]c2ccccc12)NC(=O)[C@H](CCC(N)=O)NC(=O)[C@@H](NC(=O)[C@H](Cc1ccccc1)NC(=O)CCCCCNC(=O)CN1CCN(CC(=O)O)CCN(CC(=O)O)CCN(CC(=O)O)CC1)C(C)C)C(=O)N[C@@H](CCC(=O)O)C(=O)N1CCC[C@H]1C(=O)N[C@@H](CC(=O)O)C(=O)N[C@H](C(=O)N[C@@H](CO)C(=O)N[C@@H](CCC(N)=O)C(=O)N[C@H](C(=O)N[C@@H](CCC(N)=O)C(=O)N[C@@H](CC(=O)O)C(=O)N1CCC[C@H]1C(=O)N[C@@H](CC(N)=O)C(=O)N[C@@H](CC(=O)O)C(=O)N[C@@H](CCC(N)=O)C(=O)N[C@@H](Cc1ccc(O)cc1)C(=O)N[C@@H](CCC(=O)O)C(=O)N1CCC[C@H]1C(=O)N[C@@H](Cc1ccccc1)C(=O)O)C(C)C)C(C)C [copper-64 labelled] — tissue uptake (BALB/c mice, male, CT26 tumour-bearing, pancreas; 2 h, anti-PD1 plus anti-CTLA4 treated): 1.07 ± 0.4 %ID/g
Cc1ccc(OCCN(C)C)cc1C(=O)N[C@H](C)c1cc(-c2ccc(C(F)(F)F)s2)nc2ccccc12 — viability (Vero E6; 7.812 µM): 126% and 122%
COc1ccc2c3c1O[C@H]1[C@@H](O)C=C[C@H]4[C@@H](C2)N(CCc2ccccc2)CC[C@@]341 — logD (octanol/buffer; 1 h, pH 7.4): 2.61
O=C1NC2(CC2)COc2ncc(F)cc2[C@H]2COCCN2c2ccn3ncc1c3n2 — aspartate aminotransferase activity (Sprague-Dawley rat, female, serum; oral, 5 mg/kg/day, 4 weeks daily, end of recovery period): 88.3 ± 5.8 U/L
Cc1ccc(N(C)C2CN(C)C2)cc1C(=O)N[C@H](C)c1cc(-c2cnn(C)c2)nc2ccccc12 — viability (Vero E6; 250 µM): 0.933%
COc1ccc2c3c1O[C@H]1[C@H](O)CC[C@@]4(O)[C@@H](C2)N(C)CC[C@]314 — logD (octanol/water, borax buffer; 1 h, pH 9.84, ionic strength 0 M): 1.06

For quick reference, copied from above:
Cc1nc2cccc(OCC(C)(C)C(=O)NC(C)C)c2c(N)c1C(=O)[O-].[Na+] — revertant colonies per plate (Salmonella typhimurium; TA1537; 0.32 mg per plate, without S9, preincubation): 13 ± 1
